Results of several laboratories.
A part holds a random share of what one study measured. Changes are numbered by the printed parent chain.

Set 1
Target: Sal-like protein 4, full length isoform B (SALL4, Homo sapiens, UniProt Q9UJQ4-2, residues 1-616)
Method: universal PBM
Form: double-stranded DNA, one strand shown
Matrix: in vitro
Concentration: not given
Setting: 8-mer, flanks averaged, mean of replicates
Reading: higher = stronger binding
Target sequence (chain): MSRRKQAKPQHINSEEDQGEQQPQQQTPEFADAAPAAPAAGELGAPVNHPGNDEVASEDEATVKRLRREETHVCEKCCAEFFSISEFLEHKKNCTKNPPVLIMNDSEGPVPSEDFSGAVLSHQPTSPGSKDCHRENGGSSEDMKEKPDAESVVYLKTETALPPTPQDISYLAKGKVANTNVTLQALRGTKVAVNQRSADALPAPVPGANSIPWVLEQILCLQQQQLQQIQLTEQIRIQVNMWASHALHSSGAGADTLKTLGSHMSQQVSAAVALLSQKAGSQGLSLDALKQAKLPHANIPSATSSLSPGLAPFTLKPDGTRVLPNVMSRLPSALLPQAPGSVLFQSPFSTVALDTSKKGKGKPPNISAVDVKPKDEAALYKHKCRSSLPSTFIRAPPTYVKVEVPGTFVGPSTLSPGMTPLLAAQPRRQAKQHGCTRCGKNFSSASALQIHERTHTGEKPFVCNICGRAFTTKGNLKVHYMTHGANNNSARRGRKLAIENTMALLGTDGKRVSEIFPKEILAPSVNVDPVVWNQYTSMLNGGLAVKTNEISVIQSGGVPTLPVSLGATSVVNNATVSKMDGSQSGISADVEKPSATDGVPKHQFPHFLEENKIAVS
Oligonucleotide | E-score
CTGAAAAA | 0.0267
TATCTGAA | 0.141
CTTCATTA | 0.307
AGTGGGAG | -0.145
AGTGTCAT | 0.17
CCACCTTA | 0.00623
CAGGGCAA | -0.107
ATGAACAG | 0.13
GCCTAATA | 0.14
CGACAAGC | -0.223
CGCTACTC | -0.00175
CGGCTGGA | -0.268
ATATTGTG | 0.311
GCGTTACA | 0.133
GATGGCGA | 0.038
GGTTTGGA | -0.0857
CGCGGACC | -0.299
CCTCGACG | -0.313
CATGGACC | -0.208
CGTTCTAC | -0.0833
AAGTTGAA | 0.0548
CATGGTCA | 0.0846
ATCGAATC | -0.0742
CGGTCGCC | -0.297
CCCGCTTA | -0.174

Set 2
Target: ABI1, truncated, D143A, DHFR fusion (Arabidopsis thaliana)
Method: DHFR PCA, deep sequencing
Matrix: yeast
Setting: methotrexate growth selection, single substitutions
Added: (+)-ABA 0.0091 µM
Reference: wild-type fitted maximum
Reading: higher = stronger binding
Starting sequence: PYL1, truncated, DHFR fusion (Arabidopsis thaliana); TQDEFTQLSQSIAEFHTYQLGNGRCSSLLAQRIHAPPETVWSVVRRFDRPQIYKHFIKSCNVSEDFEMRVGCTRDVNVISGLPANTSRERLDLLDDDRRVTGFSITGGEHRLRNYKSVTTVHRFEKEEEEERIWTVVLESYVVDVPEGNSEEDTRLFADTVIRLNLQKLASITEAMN; partner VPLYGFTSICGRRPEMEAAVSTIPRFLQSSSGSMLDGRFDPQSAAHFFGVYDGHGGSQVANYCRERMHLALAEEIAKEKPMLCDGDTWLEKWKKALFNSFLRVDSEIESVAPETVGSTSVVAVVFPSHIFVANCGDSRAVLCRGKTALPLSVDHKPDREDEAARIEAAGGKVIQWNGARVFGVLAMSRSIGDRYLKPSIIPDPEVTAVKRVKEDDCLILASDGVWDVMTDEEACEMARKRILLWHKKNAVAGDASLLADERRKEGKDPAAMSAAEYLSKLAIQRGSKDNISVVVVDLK
Change | relative binding score [%]
S27W | -0.341
E14R | 2.29
E125Q | 45.2
Q167E | 42.7
T160V | -2.29
F47W | 6.52
Q10E | 45.9
C60I | -1.05
S26P | 1.88
E129R | 14
Q7S | 27.5
G23H | 9.27
P37F | -4.44
T86Q | 11.9
E130D | 44.7
F124L | 42

Set 3
Target: Histone acetyltransferase KAT6A, winged helix 1, GST fusion (KAT6A, Homo sapiens, UniProt Q92794, residues 1-85)
Method: protein binding microarray
Form: double-stranded DNA, one strand shown
Matrix: in vitro
Concentration: not given
Setting: 8-mer, flanks averaged, mean of 2 arrays, mostly near background
Reference: not given
Reading: higher = stronger binding
Residues (chain): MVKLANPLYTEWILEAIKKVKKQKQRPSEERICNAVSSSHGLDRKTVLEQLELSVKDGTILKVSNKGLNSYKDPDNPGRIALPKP
Oligonucleotide | E-score
AGTTGTCA | -0.125
AGATGATG | -0.145
GACAAGAC | 0.0887
ATTACTTG | -0.205
CACGTACG | 0.106
ACTGGGGC | -0.164
AAAGTACC | 0.00371
CCCCTTCG | -0.0496
ACGGGGGC | 0.297
CGGGTTTA | 0.315
AGCCACAA | -0.0799
CGTTAGGA | 0.0687
ATGGTACG | 0.0264
CAATTCTC | -0.151
CTCCTTAC | -0.0785
ACGGCTCC | 0.354
AGCTTAGG | -0.11
CGATTCAC | -0.0379
CGGATAAA | 0.0945
TCTTGAAA | -0.181
AAATAGTG | -0.147
AAGGCTTA | -0.00082
ATCTGTTC | -0.138
CCCTTAAG | -0.106
ACACATGG | -0.153

Set 4
Target: CCND1, cyclin fold, Cln2 fusion (human)
Method: yeast growth competition, sequencing
Matrix: yeast
Setting: strong parent motif
Reference: not given
Reading: higher = stronger binding
Starting sequence: PKN2 docking peptide (human); VSAVRKLDFSDTM
Change | normalised enrichment score
VSSVRKLDFSDTM [A3S] | 2.42
VSAVRKLDFCDTM [S10C] | 4.67
VSIVRKLDFSDTM [A3I] | 2.54
VSAFRKLDFSDTM [V4F] | 1.38
VSAVRKEDFSDTM [L7E] | 0.148
VSAVRKLDFSNTM [D11N] | 4.86
VSAVRWLDFSDTM [K6W] | 2.63
VSAVRKYDFSDTM [L7Y] | 0.38
VSAVRKCDFSDTM [L7C] | 0.0801
VGAVRKLDFSDTM [S2G] | 5.31
VSAVVKLDFSDTM [R5V] | 2.24
VSAVRKLDGSDTM [F9G] | 0.24
VVAVRKLDFSDTM [S2V] | 2.64
VSAVRKLDFSDHM [T12H] | 5.29
VSKVRKLDFSDTM [A3K] | 1.08
VSAVRKLDFSHTM [D11H] | 3.72
VSAVRKLDFSDNM [T12N] | 5.48
VSAVRKLDFPDTM [S10P] | 4.2
VSEVRKLDFSDTM [A3E] | 0.0785
VSANRKLDFSDTM [V4N] | 2.49
VSAVRKLDFSFTM [D11F] | 4.2
VSAVRKLDFSVTM [D11V] | 4.77
VSAVRELDFSDTM [K6E] | 2.89
VSAVRKIDFSDTM [L7I] | 5.51
VSAVRKLDFSITM [D11I] | 4.45

Set 5
Target: Prothrombin, mature alpha-thrombin (F2, Homo sapiens, UniProt P00734)
Method: aptamer microarray, sandwich
Form: DNA with 2'F-ANA
Matrix: in vitro
Concentration: 200 nM
Setting: whole 15-mer aptamer, many near background
Added: Cy3 exosite-II aptamer, 400 nM
Reading: higher = stronger binding
Oligonucleotide: GGTTGGTGTGGTTGG
Modification | mean fluorescence intensity [a.u.]
2'F-ANA at 6 8 9 10 11 12 15 | 143
2'F-ANA at 2 7 8 10 11 12 13 | 167
2'F-ANA at 3 6 7 8 9 11 12 13 15 | 1020
2'F-ANA at 3 4 5 6 7 8 10 11 13 14 | 46.8
2'F-ANA at 3 6 9 | 1070
2'F-ANA at 1 6 7 9 12 13 14 15 | 63.8
2'F-ANA at 1 2 3 5 6 7 8 9 11 12 13 14 15 | 103
2'F-ANA at 5 6 7 8 9 12 | 184
2'F-ANA at 2 3 9 12 | 1120
2'F-ANA at 1 2 3 4 7 12 13 14 | 77.8
2'F-ANA at 1 5 6 7 8 14 | 45.3
2'F-ANA at 1 3 4 6 7 9 11 12 13 | 175
2'F-ANA at 3 4 5 6 9 10 11 13 15 | 48.1
2'F-ANA at 5 8 9 10 13 | 42.2
2'F-ANA at 7 8 9 13 14 | 191
2'F-ANA at 1 2 7 11 12 15 | 303
2'F-ANA at 1 2 3 4 8 9 10 13 14 | 63.1
2'F-ANA at 1 2 8 9 11 12 13 15 | 261
2'F-ANA at 1 2 5 6 7 9 11 12 15 | 108
2'F-ANA at 1 2 3 6 7 8 9 10 11 12 13 14 | 57.5
2'F-ANA at 2 3 6 9 10 11 13 | 294
2'F-ANA at 1 3 4 5 7 12 15 | 108
2'F-ANA at 1 2 3 5 6 10 12 13 | 47.5
2'F-ANA at 4 5 9 11 13 14 15 | 43.9

Set 6
Target: Interferon regulatory factor 7, full length, phosphomimetic (IRF7, Homo sapiens, UniProt Q92985, residues 1-503, S101K/S471D/S472D/S475D/S476D/S477D/S483D/S484D/S487D)
Method: protein-binding microarray
Form: double-stranded DNA, one strand shown
Matrix: in vitro
Concentration: 250 nM
Setting: 60-bp whole probe
Added: salmon DNA 0.4 mg/ml
Reference: random background probes
Reading: higher = stronger binding
Constant ends, left off below: GCCTAGCAC … GTCTTGATTCGCTTGACGCTGCTG
Construct (chain): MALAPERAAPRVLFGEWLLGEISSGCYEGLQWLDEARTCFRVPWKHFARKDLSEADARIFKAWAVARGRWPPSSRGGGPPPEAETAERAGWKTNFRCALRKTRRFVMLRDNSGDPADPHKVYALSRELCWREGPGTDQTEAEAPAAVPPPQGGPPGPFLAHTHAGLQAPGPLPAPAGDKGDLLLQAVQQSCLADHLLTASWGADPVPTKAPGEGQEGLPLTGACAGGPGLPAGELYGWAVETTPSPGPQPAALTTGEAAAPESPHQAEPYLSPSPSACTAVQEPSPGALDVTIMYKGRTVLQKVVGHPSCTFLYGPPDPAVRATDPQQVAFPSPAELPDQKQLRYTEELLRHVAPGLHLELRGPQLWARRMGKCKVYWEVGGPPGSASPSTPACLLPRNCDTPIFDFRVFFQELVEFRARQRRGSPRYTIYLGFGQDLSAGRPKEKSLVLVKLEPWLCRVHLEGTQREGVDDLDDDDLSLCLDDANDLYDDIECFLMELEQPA
Oligonucleotide | log fluorescence [z-score]
GACGGCCTCGGACTGGGGACGTGCTAG | -0.151
TCTAATATTCATTTTATTCAGTGCTAG | 0.829
TCAACACTAATTTTCAAACTGTGCTAG | 0.195
TTAGGACTGGACTTTCGATTAGTGCTA | 0.722
TTAGTTATCCTTATCCTTTAGTGCTAG | 0.693
TTAGGTTCCGGTTTCAGTTAGTGCTAG | 7.97
ACTCTAATCTCACTCTGTCCGTGCTAG | 0.213
TCTACAATGGCTTTGCCTTTGTGCTAG | -0.697
CCCCAACTCGCCTTTTTTGTTGTGCTA | -0.135
GCCCATCTCTGCTCCTTCTGGTGCTAG | 0.618
GACGATTTCGTGTTTCGAGACGTGCTA | 2.59
GACGGTCTCGGACAGGGGACGTGCTAG | 0.0564
CCTAGCCTCCCAGCCCAGCAGTGCTAG | -0.381
TTAGGTCTCGTTCTCGGTTAGTGCTAG | 2.92
TTAGATTTCGGGTTTCGAATAGTGCTA | 4.76
TCACCTCTCTGTCCCCCACTGTGCTAG | 0.516
CTTGAACCTGGGAGGTGGAGGTGCTAG | -0.648

Further values, each from its own experiment
Substance | target | test | test system | conditions | how to read | measurement | value
PhoQ, residues 284 288 289 292 302 303 ALVSVA | PhoP, residues 12 14 15 18 19 IFFTR (Escherichia coli, UniProt P23836) | Sort-seq, refers to: YFP reporter | E. coli | PhoQ-PhoP variant library, added: 10 µM Mg2+ | reference: high Mg2+ state, higher = stronger signaling | fold induction | 4.42

Excerpt of the above (set 3):
Oligonucleotide | E-score
CGGGTTTA | 0.315
CGTTAGGA | 0.0687
ATCTGTTC | -0.138
ATGGTACG | 0.0264
CACGTACG | 0.106
ACTGGGGC | -0.164
CCCCTTCG | -0.0496
AGATGATG | -0.145
CTCCTTAC | -0.0785
